Results gathered from unrelated publications.
Parts stem from different laboratories: compare values within a part only. Changes are numbered by the printed parent chain.

Study 1 — target: CCNA2, cyclin fold, Cln2 fusion (human); method: yeast growth competition, sequencing; sample: yeast; notes: strong parent motif; relative to: not given; direction: higher = stronger binding; endpoint: normalised enrichment score
Starting sequence: ANKRD17 docking peptide (human); PSVRRQLFVTVVK
T10A: 5.36
R4A: 3.27
R5K: 3.45
F8A: 1.39
Q6A: 4.17
V9A: 4.67
R5A: 2.94

Study 2 — method: protein-binding microarray; molecule type: double-stranded DNA, one strand shown; sample: in vitro; tested at: 250 nM; notes: 60-bp whole probe; added: salmon DNA 0.4 mg/ml; relative to: random background probes; direction: higher = stronger binding; endpoint: log fluorescence; all sequences stand within: GCCTAGCAC … GTCTTGATTCGCTTGACGCTGCTG
Target: Interferon regulatory factor 5, full length, phosphomimetic (IRF5, Homo sapiens, UniProt Q13568-2, residues 1-514, K96S/S451D/S453D/S456D/S462D)
GGCGGTATCCTACTGCTGACGTGCTAG: -0.393 z-score
GACGGTCTCGGTCTCGGAACGTGCTAG: 0.253 z-score
TTAGGTGCCCTTTTCCTTTAGTGCTAG: -0.0658 z-score
TTAGATTTCGACTATCGGTTAGTGCTA: 8.22 z-score
CTCTGCTTGGGTCTGGGTATGTGCTAG: -0.535 z-score
TCAGCTCTGTGCATAGGACTGTGCTAG: -0.341 z-score
GACTGTTTGGTCCTGATCCTGTGCTAG: -0.347 z-score
TTAGGTCTCCTACTGCATTAGTGCTAG: -0.247 z-score
GACGGCATCCTTTTCCTGACGTGCTAG: -0.148 z-score
TTAGATTTCGGGTATCTATTAGTGCTA: 5.62 z-score
GACTTTCTTTCAAATGAAGGAGTGCTA: 4.07 z-score
TAAGGACTGGGGTTTCGGTTAGTGCTA: 7.04 z-score
TTAGAACTTAGTTTCGATTAGTGCTAG: 10.1 z-score
TTTGCTCTGTGCATAGGTCTGTGCTAG: -0.0833 z-score
GACGGTATCCTTTTACTGACGTGCTAG: 0.383 z-score
GACGTTCTCCTTATCCTGACGTGCTAG: 0.174 z-score
TTAGGTCTCGGTATCGATTAGTGCTAG: 4.87 z-score
TCACCCTTTGCTTTCCTACTGTGCTAG: 0.716 z-score
CTTTCTTTTTTTCTTTTATTGTGCTAG: 2.89 z-score
GACGATTTCAGACTGGAGAGGTGCTAG: 0.0509 z-score
GACGGTTTTGGTTCCGGGACGTGCTAG: 1.69 z-score
GACTGTTTCGGGTATCGGGACGTGCTA: 8.45 z-score
GACGGTATCGGGTTTCGGGCCGTGCTA: 3.82 z-score
GACGGTTTCCTTTCACTGACGTGCTAG: 3.13 z-score
ATGGCTCTCTGGACTGTGTGTGTGCTA: -0.785 z-score

Study 3 — method: universal PBM; molecule type: double-stranded DNA, one strand shown; sample: in vitro; tested at: 600 nM; direction: higher = stronger binding; endpoint: E-score
Target: Sal-like protein 4, full length isoform A (SALL4, Homo sapiens, UniProt Q9UJQ4, residues 1-1053)
Sequence of UniProt Q9UJQ4 (whole entry, looked up): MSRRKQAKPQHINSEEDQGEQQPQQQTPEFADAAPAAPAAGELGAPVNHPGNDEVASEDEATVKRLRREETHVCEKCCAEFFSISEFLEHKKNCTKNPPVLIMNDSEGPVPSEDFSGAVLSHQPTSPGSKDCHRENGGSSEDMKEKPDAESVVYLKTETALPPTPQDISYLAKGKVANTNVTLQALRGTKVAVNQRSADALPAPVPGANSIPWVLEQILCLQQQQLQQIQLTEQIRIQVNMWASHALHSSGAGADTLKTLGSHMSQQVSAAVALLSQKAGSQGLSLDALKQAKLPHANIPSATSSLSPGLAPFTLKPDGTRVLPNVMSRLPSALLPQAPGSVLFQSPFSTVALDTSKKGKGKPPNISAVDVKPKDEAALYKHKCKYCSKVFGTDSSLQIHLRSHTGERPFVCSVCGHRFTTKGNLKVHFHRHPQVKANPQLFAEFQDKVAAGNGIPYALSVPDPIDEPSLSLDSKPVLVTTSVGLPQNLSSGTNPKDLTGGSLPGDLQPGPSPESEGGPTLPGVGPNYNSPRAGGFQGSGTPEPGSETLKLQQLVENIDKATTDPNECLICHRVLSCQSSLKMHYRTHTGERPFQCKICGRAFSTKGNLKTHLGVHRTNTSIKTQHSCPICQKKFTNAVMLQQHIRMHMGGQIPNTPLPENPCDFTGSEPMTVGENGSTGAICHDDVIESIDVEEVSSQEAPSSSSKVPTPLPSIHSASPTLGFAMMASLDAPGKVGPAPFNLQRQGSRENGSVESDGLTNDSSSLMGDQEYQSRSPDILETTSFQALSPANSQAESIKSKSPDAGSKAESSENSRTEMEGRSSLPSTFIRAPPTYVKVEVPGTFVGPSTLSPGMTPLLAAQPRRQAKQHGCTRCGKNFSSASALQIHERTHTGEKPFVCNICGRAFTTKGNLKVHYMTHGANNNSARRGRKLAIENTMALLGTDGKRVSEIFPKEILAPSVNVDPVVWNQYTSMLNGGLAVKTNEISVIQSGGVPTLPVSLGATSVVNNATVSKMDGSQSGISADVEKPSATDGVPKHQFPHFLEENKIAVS
Notes: 8-mer, flanks averaged, mean of replicates
GAGATTGC: -0.185
TGACGCCA: -0.23
GAAAGCTC: -0.257
CTTACGCA: 0.0589
GCCTAAGA: -0.142
CATTCTGG: -0.0343
GTCGAAAC: -0.119
GCTATTTA: 0.282
CCTGACAA: -0.00035
GGATTCGA: -0.154
ACTAAGGC: -0.0629
GACTTATC: -0.00121
TAATGGAA: 0.209
GCCTTAAC: -0.165
CAATCATC: 0.0983
CGCATTAA: 0.25
AACGGCCT: -0.224
CACTGTGA: -0.0721
CATAGGCA: 0.113
ATGTACCA: 0.127
ACATTGGC: 0.0114
GAAGCTGA: -0.0362
AGGAACGA: -0.123
GGCTGCTA: -0.0926
AGGAGCAT: -0.0109

Study 4 — method: RNA Bind-n-Seq; molecule type: RNA; sample: in vitro; tested at: 100 nM; relative to: input RNA pool; direction: higher = stronger binding; endpoint: bound/input enrichment
Target: RING finger protein unkempt homolog, zinc fingers 1-6, SBP tag (UNK, Homo sapiens, UniProt Q9C0B0, residues 30-357)
Sequence of UniProt Q9C0B0 (30-357, looked up): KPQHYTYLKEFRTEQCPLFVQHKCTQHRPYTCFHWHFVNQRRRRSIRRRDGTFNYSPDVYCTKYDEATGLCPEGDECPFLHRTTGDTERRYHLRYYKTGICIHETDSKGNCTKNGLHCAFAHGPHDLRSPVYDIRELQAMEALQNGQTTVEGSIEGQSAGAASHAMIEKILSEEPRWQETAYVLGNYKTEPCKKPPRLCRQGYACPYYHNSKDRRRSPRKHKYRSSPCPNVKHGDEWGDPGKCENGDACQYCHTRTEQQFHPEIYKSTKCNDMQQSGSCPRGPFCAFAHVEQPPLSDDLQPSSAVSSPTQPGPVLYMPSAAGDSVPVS
Notes: RNA with constant flanks, vertebrate orthologous sites, ends assumed
All sequences stand within: GGGAGUUCUACAGUCCGACGAUC … CAACAGAGGAUUGAGCAUCA
UGAGGUGUACUUGUGGGGCACUGCUGGCUGCUUAGCGUCGUUAAAUUUGUGACCUUGACAUCAUAGAUAGGCUUGUGGUGUUUUUUUAAUUUAAAGAUAUUAAGACUUAAUUCACUAAAA: 0.605 ratio
ACAGGAACAGCAUAGGCUGUUUGAGUUUUGGGGAAAUGAGCUUUGCUUUUUAUAUUUAACUAGGAUACUUUUAUAUGAUGGGUGCUUUGAGUGUGAAUGCAGCAGGCUCUCUUGUUUCCG: 1.29 ratio
UAUUAGUGUUGUACCAGCCUAUUAACCUCUUGUCUGUGCACAGCUUCAAAUGUUACCGUCUAGUUAGAUUUUUAUUUAAAAUAUGAAAAACUGCUUUUCCCAAGACGUUUUUUAAAAACA: 1.61 ratio
GAAGUGUCCCAUUGUCACUGAGAACCACCAAAUUUGACUUUCACAUUUGGUCUCAGAAUUUAGGUUCCUGCCCUGUUGUUUUUCUUUCGUUUUCUUAAAACAAACAAACAGUUUUCAGAA: 0.288 ratio
UUACAGUCAUUGAUGGACUCUAUUUUUUUAUUAUUACUUGGACCUUGGUCGUUUUUAUACUAGCAAAACGUCUUGUUUUAAUUUGUGUUUUUUUUUUUUUUGGCGGGGAGGGAGUGAACU: 5.59 ratio
CAUGUCCUUGUUGCUGUGAUAUUUAAAAUAUCCACAGUACUCACUUUUUCCAAAUGAUUCUAGUAACUGCCUAGAAAUAUUUUUCUCUUACCUGUUAUUUAUCAAUUUUUCCCAGUAUUU: 1.05 ratio
UCAUCUCUCAUUUUAUAUGUCCAAAUGGCUUUGAAUUUUUAAACAAUUGAUAGUUUUAAUUAGCUCUGCCCUCAUGAAGUAUACUUAUACUUCACCACAGAUAUAUGUCUGAUUACUUCA: 0.789 ratio
UGUUACGGUCAUACCAGCCUGUUAACCUCUCGUCUGUGCACAGCUUCAAAUGUUACCGGCUAGUUAGAUUUUUAUUUAAAAUAUGGAAAACUGCUUUUCCCAAGACAUUUAAAAAGAAAC: 1.15 ratio
ACAGGAGCAGCAUAGGCUGUUUGAGCUUUGGGGAAACGAGCUUUGCUUUUUAUAUUUAACUAGGAUACUUUUACGUGAUGGGUGCUUUGAGUGUGAAUGCAGCAGGCUCUUGUUUCCGAG: 0.948 ratio
UUUUAUUGAUCAGGUCUGUAAAUGUGUACUGAAAAAAUCAGAGUCUAUUUAUAAAUAGAAUAGUUUAUUUAAAGAGGUCUUUCCUCAUCCAUGUUGUGAUAUGCGUAAUUCCAUUUGUUA: 0.673 ratio
GAAUUGAAAAACCAGAGCUUCACCCAGGCCCCUGUUCACUAGGAGAUGCAAAUAUUACAUUAGAAGAACAAUUAAACUCCAUAAAUUUAUCUUUUCAGGAUGAUCCAGAUUCCAGUACGA: 1.3 ratio

Study 5 — method: protein binding microarray; molecule type: double-stranded DNA, one strand shown; sample: in vitro; tested at: not given; relative to: not given; direction: higher = stronger binding; endpoint: E-score
Target: Histone acetyltransferase KAT6A, winged helix 2, GST fusion (KAT6A, Homo sapiens, UniProt Q92794, residues 85-181)
Notes: 8-mer, flanks averaged, mean of 2 arrays, mostly near background
Target sequence (chain): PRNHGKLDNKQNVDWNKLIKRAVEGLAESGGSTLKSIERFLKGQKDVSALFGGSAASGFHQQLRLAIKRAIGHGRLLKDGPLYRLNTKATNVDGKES
AGCGCCAG: 0.174
CCCTGCCC: 0.0961
AAACAAAT: 0.0699
CATTGGAG: -0.072
CGCTAGGA: 0.0527
GCCCTTAC: -0.0106
ATTTCGGG: -0.00421
CTCCCTGA: -0.0695
AGATTTCG: 0.12
CGGCTTAA: 0.257
GCACAAGC: 0.0646
AGGCTAGG: -0.171
AGTCTCCG: 0.00985
ACCACCGG: 0.0138
GCAGCGCC: 0.155
CACACGAA: 0.137
CTAGCACA: -0.155
CAGCGCCC: 0.17
CAATACAA: -0.0543
AAAAATCT: 0.0579
ATGTCTGG: -0.0533
AGCTACAT: 0.0644
GCAACACA: 0.0602
ACACGTAA: -0.203
ATATAGTA: -0.114

Study 6 — method: DHFR PCA, deep sequencing; sample: yeast; added: (+)-ABA 1.4 µM; relative to: wild-type fitted maximum; direction: higher = stronger binding; endpoint: relative binding score
Target: ABI1, truncated, D143A, DHFR fusion (Arabidopsis thaliana)
Notes: methotrexate growth selection, single substitutions
Starting sequence: PYL1, truncated, DHFR fusion (Arabidopsis thaliana); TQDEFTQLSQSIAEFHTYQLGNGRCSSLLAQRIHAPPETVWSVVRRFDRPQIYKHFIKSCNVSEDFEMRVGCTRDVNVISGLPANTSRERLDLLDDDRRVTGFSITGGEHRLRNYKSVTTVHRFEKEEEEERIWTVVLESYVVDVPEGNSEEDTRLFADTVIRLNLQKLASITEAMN; partner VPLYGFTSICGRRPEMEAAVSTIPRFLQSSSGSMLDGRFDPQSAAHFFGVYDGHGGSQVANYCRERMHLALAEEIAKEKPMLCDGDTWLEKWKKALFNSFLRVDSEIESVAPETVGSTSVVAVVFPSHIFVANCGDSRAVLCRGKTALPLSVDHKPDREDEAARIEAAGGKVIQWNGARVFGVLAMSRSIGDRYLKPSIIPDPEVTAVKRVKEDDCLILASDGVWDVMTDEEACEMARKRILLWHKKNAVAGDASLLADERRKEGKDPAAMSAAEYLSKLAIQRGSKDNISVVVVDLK
A84E: 14.7%
A35T: -2.68%
T73N: 11.4%
I105K: -5.4%
Q51Y: -9.45%
I12L: 11.1%
T106L: 71.8%
V76R: -10.2%
V118F: -3.34%
R98V: 17%
A158R: 2.56%
G21K: 48.2%
K58R: 54.1%
